Assay results gathered from unrelated publications.
Each numbered part is a random draw from the data of one study; scales do not carry over between parts. Substitutions count along the parent as printed.

Block 1
Target: RING finger protein unkempt homolog, zinc fingers 1-6, GST-SBP tag (UNK, Homo sapiens, UniProt Q9C0B0, residues 30-357)
Chain of UniProt Q9C0B0 (30-357, looked up): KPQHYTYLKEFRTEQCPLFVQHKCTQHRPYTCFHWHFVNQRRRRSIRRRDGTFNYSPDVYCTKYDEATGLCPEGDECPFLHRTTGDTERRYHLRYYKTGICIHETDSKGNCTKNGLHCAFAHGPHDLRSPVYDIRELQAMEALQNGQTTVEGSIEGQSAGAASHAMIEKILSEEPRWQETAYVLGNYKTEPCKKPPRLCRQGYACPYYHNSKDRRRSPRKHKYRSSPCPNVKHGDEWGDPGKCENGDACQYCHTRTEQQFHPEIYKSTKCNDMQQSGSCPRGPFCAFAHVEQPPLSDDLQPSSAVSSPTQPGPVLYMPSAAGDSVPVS
Method: RNA Bind-n-Seq
Form: RNA
Medium: in vitro
Tested at: not given
Notes: RNA with constant flanks, human and mouse sites, ends assumed
Reference: input RNA pool
Direction: higher = stronger binding
Quantity: bound/input enrichment
Constant ends, left off below: GGGAGUUCUACAGUCCGACGAUC … CAACAGAGGAUUGAGCAUCA
AGGAAACAUCUUCUGCAUUUCAAAGUCCUCACUUUGACUUAUUUGGCCUUCAUCUUGGCAUGGAAGGUGGCAGGCAGAAUGGAAAUACUCCCCCCAAACAGAACAGAUAUUCUUGCGUGU: 0.255 ratio
AAGUCAGCAGCACAAGCCAGACGCCGGCUGAUGAGUGGAAAAGUCAAAGUGUGGGGAAAUGUGGUUACAGUAGAGUGGGCUGACCCCGUGGAGGAGCCGGAUCCAGAAGUCAUGGCAAAG: 0.39 ratio
UUGCCCUUGAAGCUGUCAAGUGCUGCCUGUCUCUCUCCUCGCCCUCCAGCUCCAUGCGUUGCUCUGUGCAUGCUUGAGGCCUUCCCCAGCUCGCGUGUGCAGGACAGUCCUUUGGUAAUG: 0.115 ratio
UUUCAUAAUCGAAGCGAUUUUAGAGUAGUUAACUUGAGAUUUCACAGCCAGUAAAUGGCUGUAUUUCUCCAGAGCUCUCAGCUCCCAUGUUUAUUCAGCCAACGAACAAACCAGACUGCA: 0.154 ratio
UUUUCCUGGAUUAUUGUUCCUUUAUAUAUAAAGGUUUGAUCAUCCAGUGCCUUAAUUGGCUUUAGUAGUGUAGGUCUUACCAUUGUCACAGUCAAUUGAUUUGACUUCAGAGCGUAAUGG: 0.58 ratio
GAAGAAGCCGUGAAUAAGGUGAAAAUUCAGGCCAUGUCAGAGGUACAGAAGGCUGUAGCUGAGGCAGAGCAAAAAGCCUUUGAAGUGAUUGCAACGGAGAGAGCUCGAAUGGAGCAGACC: 0.251 ratio
AUUGACAAGUGCAGACAGCAGCUUCAUGAUAUUACUGUACCGUUAGAAGUUUUUGAAUAUAUAGAUCAAGGUCGAAAUCCCCAGCUCUACACCAAAGAGUGCCUGGAGAGGGCUCUAGCU: 4.41 ratio
CUGCUUCCAAACACUGACAGGGAUCAAGUUUGUGGUCCUGGCAGACCCUAGGCAAGCUGGAAUAGAUUCUCUUCUCCGAAAAAUUUAUGAAAUUUACUCAGACUUUGCCCUCAAGAAUCC: 0.278 ratio
GACAGAAUUCAGAAGCAGGAAAAAAAGCCUUUUAAAAAUACCGAGAACAUUAAAAAUUCGCAUUUGAAGAAAUCAGCAUUUCUAACUGAAGUGAGCCAAAAGGAAAAUUAUGCUGGGGCA: 0.45 ratio
CAUAAGCGUUGUAUUGUAAUUCUUAGAGAGAUUCCUGAAACAACACCAAUAGAGGAAGUGAAAGGUUUGUUCAAAAGUGAAAACUGCCCCAAAGUGAUAAGCUGUGAGUUUGCACACAAU: 0.224 ratio
CUUCUGUUUCAUACAAUAUCCUUUCAUACUUCUGCUAAUCUGCUAAUGUAAUUUGGAAGAUAGCUGUCACCAGGAUAACCUGUAAUGGGCAAGGAGCCACAGAGAAGAAAACAUUUCUUU: 0.13 ratio

Block 2
Target: CCNA2, cyclin fold, Cln2 fusion (human)
Method: yeast growth competition, sequencing
Medium: yeast
Notes: weak parent motif
Reference: not given
Direction: higher = stronger binding
Quantity: normalised enrichment score
Starting sequence: SLBP docking peptide (human); ARYKRKLLINDFG
F12C: 0.542
L8V: 1.53
Y3S: 2.13
F12N: 0.865
D11V: 1.99
Y3G: 0.509
D11A: 2.11
K4S: 0.238
R5H: 1.03
D11N: 0.464
L7T: 0.116
Y3V: 1.95
R5A L7A: 1.27
R2K: 1.14
Y3F: 1.04
N10S: 1.13
A1T: 2.01
Y3P: 0.669
K6Q: 1.65
A1I: 0.896
K6I: 1.07
I9E: 1.23
D11G: 1.2
K6Y: 2.09
F12Y: 1.7

Block 3
Target: Hepatocyte nuclear factor 3-alpha (Foxa1, Mus musculus, UniProt P35582, residues 1-468, full length assumed)
Chain of UniProt P35582 (whole entry, looked up): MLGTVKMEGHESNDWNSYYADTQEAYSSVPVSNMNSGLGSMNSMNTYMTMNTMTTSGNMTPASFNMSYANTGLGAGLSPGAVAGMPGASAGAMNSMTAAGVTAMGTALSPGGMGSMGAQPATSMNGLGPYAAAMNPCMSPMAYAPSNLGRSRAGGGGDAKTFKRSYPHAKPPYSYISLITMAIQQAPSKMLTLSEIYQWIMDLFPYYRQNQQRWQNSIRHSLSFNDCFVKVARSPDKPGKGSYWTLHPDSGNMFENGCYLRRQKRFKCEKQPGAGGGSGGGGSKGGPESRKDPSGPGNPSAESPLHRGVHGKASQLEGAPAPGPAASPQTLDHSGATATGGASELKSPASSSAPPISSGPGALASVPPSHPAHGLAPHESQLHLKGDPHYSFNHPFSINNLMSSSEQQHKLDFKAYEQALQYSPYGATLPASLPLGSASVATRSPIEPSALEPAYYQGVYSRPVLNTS
Method: EMSA with sequencing
Form: double-stranded DNA, one strand shown
Medium: in vitro
Tested at: 10 and 20 nM
Notes: whole designed probe, mean of two concentrations, ends assumed
Reference: negative control set to 0
Direction: higher = stronger binding
Quantity: normalised bound fraction
Constant ends, left off below: GTGAGCGGTGCCCATTGATGGGGAAC … TTTCACTGGGATCGTGGGGAC
TATGTGGGAACTAATTGAGGACCATGTTTACAATGCGTACAAATCATAAATCAATTAGTTCATATTGATTTACAAACAAGGAAGAAAAAGTATTTGTTTACATTGATACTGTCCATGTAAACTTTTTTCAATTCAAAAGAAACACATAGTTCTGTCATAAAGTAGATTTTCTATCCCTTTTATTTTCTGAGCT: 0.491 ratio
TTATGATCTGAGTATATATAGTAAGTACCTCCCCTTTCAGGGTAAGGCAGTAGGTAATGGTGACAGGGAAGCAAAAAGGTGACTCAGGTTGAGTAAACAACACCAAGCATATCTGACTCAAGGAATGCTTCAGAGGCCAGGGGTGCATGCCTGTAATCCCAGCACCTTGGAAGGCTGACACAGGAGGATCACT: 0.421 ratio
ACATCCTTACTTTCTTCCTGCCTGAAACCCAGGTGAAATTTACTGGAGCCCAGTAAATTCTAGCACTGTCTAACAAACTTAATTTAGGTCCCTGTTTACTTTTTAGCTAAACACTAATTAAACTACACTAATTAATGATGATGCATGTAAAAAATTAGTTTTTTTTTCTTAACGGGAAATGTGAACACTGAAA: 0.254 ratio
ATCTTCCCCCTCTTCCTTGCCCCACCAGCTCACCTACGGGGGTTATTTGCACAAAGGAAAATAAATAAAGCCGGCATTCGTTAACGCAGTTCACGCGCATACTGCTGTTTGCTCTGGATCTAACATGGTCCTTTGGCGACGCCAGGCTCCGGGAGAGCAAAGCACCGTGTCAGGGCCATGATCCGGGCTCGCC: 0.386 ratio
ATCTTCCCCCTCTTCCTTGCCCCACCAGCTCACCTTCCCGGGTATCTGCAAATAAGTATTTATTTTCAAGCCGGCATTCGTTAACCCTCTTCTGGCGCAAACTGCCAAAGTAAACAGATGAATCATGGTCCTTTGGCGACGCCAGGCTCCGGGAGAGCAAAGCACCGTGTCAGGGCCATGATCCGGGGTGGCC: 0.451 ratio
GTGTGTGCGCGCGCGTGTGTGTGTGTTTTCTTAAGCCGGGCTATTCAAACCCTGCTGCAATTCTCCGGTAAACAATGTTACATGGGGCATAATGCAAATAAACGGATTGCAAACGGCGCGCAATGATTCATTTGCAGCCGGCCCGGTGGAGCAGCCAGTGCCGGATTTCTCCCTTTTTTTGCAGATCTGCAGA: 0.386 ratio
CCCTCAAGACACATAATATTTGCAGAATTCTGTGGACAGAGGATTTAGTACACACTGCTTTCATCCTGTGATTGCCCTAAGTACTTTCAGAAATGTAAACAGTCCTGACACATGTGGTCTTTGAATATGGTCAAACACCTCATTCTTCAGCTTTGGTATCTCATAACAAATTGTTGCATAAAGTATGAAAAAT: 0.36 ratio
GGGCCCAGCTGGAGCCTGAAGATACTGGGCTCCACCCAACATGTTGGGTGAGGGAAACTGGGCCATATTAGGAATTGCACAAAGATCTCAATGTAAACAGGAGCTGAACTGCAACCTGGGCATAAAGGAGAAACTGGATGTTTGGGTCCATAAGGCAGAGAAATGTTTGAGAACTTGTCTCAAAATTCTTCTG: 0.259 ratio

Block 4
Target: TAR DNA-binding protein 43, full length, His tag (TARDBP, Homo sapiens, UniProt Q13148, residues 1-414)
Method: RNA Bind-n-Seq
Form: RNA
Medium: in vitro
Tested at: 20 nM
Notes: 6-mer, flanks averaged, single round
Together with: 150 mM KCl
Reference: input library
Direction: higher = stronger binding
Quantity: 6-mer enrichment (R)
AGGGAU: 1.99
CCAGUC: 0.633
UCAAGG: 1.03
UUUGUA: 0.736
CCGCAG: 0.883
AAUCCG: 0.619
UCACAC: 0.598
GUUCCA: 0.631
ACAACG: 0.757
AGGAUG: 1.48
AACAGG: 1.12
UUAAUC: 0.562
GAAGCU: 0.779
CCAGGA: 0.937
ACUUAA: 0.577
UUAAAA: 0.625
UCUGCA: 0.625
GCAUCG: 0.918
UAUACA: 0.592
CCCCUG: 0.692
UGGGAA: 2.02

Block 5
Target: Sal-like protein 4, full length isoform B (SALL4, Homo sapiens, UniProt Q9UJQ4-2, residues 1-616)
Method: universal PBM
Form: double-stranded DNA, one strand shown
Medium: in vitro
Tested at: not given
Notes: 8-mer, flanks averaged, mean of replicates
Direction: higher = stronger binding
Quantity: E-score
Construct (chain): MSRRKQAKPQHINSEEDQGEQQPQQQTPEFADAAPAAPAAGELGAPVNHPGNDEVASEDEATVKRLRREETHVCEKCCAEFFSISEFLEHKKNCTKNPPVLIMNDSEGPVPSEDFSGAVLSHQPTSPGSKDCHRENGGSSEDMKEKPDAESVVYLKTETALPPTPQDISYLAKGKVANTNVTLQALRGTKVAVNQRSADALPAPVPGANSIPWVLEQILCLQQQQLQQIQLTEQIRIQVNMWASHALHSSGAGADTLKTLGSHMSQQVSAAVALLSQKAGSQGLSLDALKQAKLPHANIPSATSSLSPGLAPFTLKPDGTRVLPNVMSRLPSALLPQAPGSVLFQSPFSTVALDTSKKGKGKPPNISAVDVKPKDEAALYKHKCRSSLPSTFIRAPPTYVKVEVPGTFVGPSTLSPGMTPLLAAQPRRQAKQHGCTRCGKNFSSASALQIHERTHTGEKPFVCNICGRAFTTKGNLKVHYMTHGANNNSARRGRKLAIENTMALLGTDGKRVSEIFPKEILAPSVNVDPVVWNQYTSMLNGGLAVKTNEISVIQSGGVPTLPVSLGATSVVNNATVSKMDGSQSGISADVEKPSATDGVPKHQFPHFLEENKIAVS
AAATCTAT: 0.282
AGATTTAC: 0.189
AAGTTACC: 0.0657
GACTCATC: -0.108
TGGTGAAA: 0.0522
AAGCGTTC: -0.086
GAACCTCA: -0.0664
ATTCATGC: 0.0298
CAAGAATA: 0.297
ACGCAGTC: -0.234
GGGTGCTA: -0.0971
CCAAGGCG: -0.172
CTCGAAAA: 0.0159
ATAATCTA: 0.36
AACTAACA: 0.195
CTATTCCA: 0.12
AGTGACCG: -0.222
CCGCTACG: -0.32
CCACCTCC: -0.121
CCCTTGAC: -0.198
AGTGGGTA: -0.127

Block 6
Target: Histone acetyltransferase KAT6A, both winged helices, GST fusion (KAT6A, Homo sapiens, UniProt Q92794, residues 1-181)
Method: protein binding microarray
Form: double-stranded DNA, one strand shown
Medium: in vitro
Tested at: not given
Notes: 8-mer, flanks averaged, mean of 2 arrays, mostly near background
Reference: not given
Direction: higher = stronger binding
Quantity: E-score
Residues (chain): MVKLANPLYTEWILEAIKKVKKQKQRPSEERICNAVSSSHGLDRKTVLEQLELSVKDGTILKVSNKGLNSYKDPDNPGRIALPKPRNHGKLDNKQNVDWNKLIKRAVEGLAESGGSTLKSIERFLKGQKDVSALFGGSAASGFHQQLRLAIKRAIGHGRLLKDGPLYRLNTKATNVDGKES
AGAGCACA: -0.204
ATGTAGAG: -0.209
ATTGTTGG: -0.101
AGCTGGAA: -0.204
CATTGGCG: 0.105
AGGTGGCC: -0.149
CACATAGA: -0.117
AACGATCA: -0.0162
ATACCCGC: 0.29
AAGCGCAT: 0.13
CCCATTAG: -0.214
AAGATCTC: -0.0305
TCTTCTAA: -0.042
GCGTTCTA: 0.0974
AGGCACAG: -0.148
TCACCCGA: 0.0521
CAGTTAGC: -0.0249

Excerpt of the above (block 1):
GAAGAAGCCGUGAAUAAGGUGAAAAUUCAGGCCAUGUCAGAGGUACAGAAGGCUGUAGCUGAGGCAGAGCAAAAAGCCUUUGAAGUGAUUGCAACGGAGAGAGCUCGAAUGGAGCAGACC: 0.251 ratio
AGGAAACAUCUUCUGCAUUUCAAAGUCCUCACUUUGACUUAUUUGGCCUUCAUCUUGGCAUGGAAGGUGGCAGGCAGAAUGGAAAUACUCCCCCCAAACAGAACAGAUAUUCUUGCGUGU: 0.255 ratio
CUUCUGUUUCAUACAAUAUCCUUUCAUACUUCUGCUAAUCUGCUAAUGUAAUUUGGAAGAUAGCUGUCACCAGGAUAACCUGUAAUGGGCAAGGAGCCACAGAGAAGAAAACAUUUCUUU: 0.13 ratio
GACAGAAUUCAGAAGCAGGAAAAAAAGCCUUUUAAAAAUACCGAGAACAUUAAAAAUUCGCAUUUGAAGAAAUCAGCAUUUCUAACUGAAGUGAGCCAAAAGGAAAAUUAUGCUGGGGCA: 0.45 ratio
UUUUCCUGGAUUAUUGUUCCUUUAUAUAUAAAGGUUUGAUCAUCCAGUGCCUUAAUUGGCUUUAGUAGUGUAGGUCUUACCAUUGUCACAGUCAAUUGAUUUGACUUCAGAGCGUAAUGG: 0.58 ratio
